Results collected from several papers.
A part holds a random share of what one study measured.
Sequence of UniProt P31152 (whole entry, looked up): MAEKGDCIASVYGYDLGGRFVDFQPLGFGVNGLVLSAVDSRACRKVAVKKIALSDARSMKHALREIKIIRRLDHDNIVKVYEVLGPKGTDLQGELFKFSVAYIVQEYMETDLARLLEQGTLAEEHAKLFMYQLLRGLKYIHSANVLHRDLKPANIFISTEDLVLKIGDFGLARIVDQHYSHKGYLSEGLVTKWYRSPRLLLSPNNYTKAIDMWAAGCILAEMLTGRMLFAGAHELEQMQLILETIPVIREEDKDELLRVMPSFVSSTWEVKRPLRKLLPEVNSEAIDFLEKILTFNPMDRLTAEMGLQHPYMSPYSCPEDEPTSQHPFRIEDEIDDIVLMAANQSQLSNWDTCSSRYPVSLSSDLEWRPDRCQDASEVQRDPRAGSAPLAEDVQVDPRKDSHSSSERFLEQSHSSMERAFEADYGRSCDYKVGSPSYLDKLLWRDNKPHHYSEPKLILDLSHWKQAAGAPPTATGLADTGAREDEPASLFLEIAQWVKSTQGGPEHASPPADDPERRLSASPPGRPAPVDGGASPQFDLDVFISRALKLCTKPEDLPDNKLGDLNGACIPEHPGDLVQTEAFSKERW
Sequence of UniProt O15197 (whole entry, looked up): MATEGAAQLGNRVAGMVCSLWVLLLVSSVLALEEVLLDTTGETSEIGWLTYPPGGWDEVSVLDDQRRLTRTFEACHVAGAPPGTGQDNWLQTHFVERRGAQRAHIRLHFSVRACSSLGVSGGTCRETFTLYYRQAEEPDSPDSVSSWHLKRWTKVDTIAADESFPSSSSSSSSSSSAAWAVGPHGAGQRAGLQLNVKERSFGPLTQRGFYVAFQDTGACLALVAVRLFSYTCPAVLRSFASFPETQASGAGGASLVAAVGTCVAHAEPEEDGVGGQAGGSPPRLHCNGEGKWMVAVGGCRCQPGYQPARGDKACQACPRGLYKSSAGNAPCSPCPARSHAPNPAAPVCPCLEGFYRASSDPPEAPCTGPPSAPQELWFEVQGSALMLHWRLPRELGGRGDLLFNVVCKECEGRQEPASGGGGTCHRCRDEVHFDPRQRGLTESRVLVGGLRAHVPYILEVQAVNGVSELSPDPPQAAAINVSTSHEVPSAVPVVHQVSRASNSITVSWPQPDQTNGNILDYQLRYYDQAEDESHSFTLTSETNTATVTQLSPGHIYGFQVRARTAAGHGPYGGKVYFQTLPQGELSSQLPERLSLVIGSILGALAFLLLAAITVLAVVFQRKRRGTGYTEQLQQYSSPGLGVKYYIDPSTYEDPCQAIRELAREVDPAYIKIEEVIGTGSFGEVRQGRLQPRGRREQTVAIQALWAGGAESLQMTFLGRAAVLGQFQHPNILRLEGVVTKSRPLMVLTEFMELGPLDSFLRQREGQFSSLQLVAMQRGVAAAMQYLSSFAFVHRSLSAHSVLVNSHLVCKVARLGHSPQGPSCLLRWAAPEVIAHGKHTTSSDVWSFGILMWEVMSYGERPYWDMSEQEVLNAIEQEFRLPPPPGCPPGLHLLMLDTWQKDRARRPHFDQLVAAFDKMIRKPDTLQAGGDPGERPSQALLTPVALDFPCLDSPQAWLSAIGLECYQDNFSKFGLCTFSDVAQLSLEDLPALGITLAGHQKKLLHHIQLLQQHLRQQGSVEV
Sequence of UniProt P49840 (whole entry, looked up): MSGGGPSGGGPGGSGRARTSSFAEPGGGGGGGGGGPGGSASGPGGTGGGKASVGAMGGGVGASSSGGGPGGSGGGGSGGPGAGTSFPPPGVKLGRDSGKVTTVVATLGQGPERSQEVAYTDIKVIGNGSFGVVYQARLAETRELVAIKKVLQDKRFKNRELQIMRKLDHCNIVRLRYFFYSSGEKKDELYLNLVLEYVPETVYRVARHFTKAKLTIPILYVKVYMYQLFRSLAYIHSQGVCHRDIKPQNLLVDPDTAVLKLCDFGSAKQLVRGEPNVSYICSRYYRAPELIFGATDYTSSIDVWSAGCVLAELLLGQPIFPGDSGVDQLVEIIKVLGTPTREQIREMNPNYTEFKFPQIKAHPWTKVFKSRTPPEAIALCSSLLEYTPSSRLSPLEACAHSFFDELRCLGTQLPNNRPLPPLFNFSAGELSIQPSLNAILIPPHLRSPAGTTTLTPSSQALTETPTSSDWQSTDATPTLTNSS
Sequence of UniProt P27361 (whole entry, looked up): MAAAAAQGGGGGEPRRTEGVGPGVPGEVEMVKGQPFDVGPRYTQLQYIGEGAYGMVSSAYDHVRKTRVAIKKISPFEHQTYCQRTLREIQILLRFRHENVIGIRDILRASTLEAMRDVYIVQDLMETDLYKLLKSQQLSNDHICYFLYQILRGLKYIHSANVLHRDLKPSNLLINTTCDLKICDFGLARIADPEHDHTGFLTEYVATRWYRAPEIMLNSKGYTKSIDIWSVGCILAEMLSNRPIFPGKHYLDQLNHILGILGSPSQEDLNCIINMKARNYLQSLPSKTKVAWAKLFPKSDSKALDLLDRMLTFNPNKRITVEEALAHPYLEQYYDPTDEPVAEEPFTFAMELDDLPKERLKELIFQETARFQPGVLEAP

Series 1
Target: DNA polymerase theta, ATPase domain (POLQ, Homo sapiens, UniProt O75417)
Sequence of UniProt O75417 (whole entry, unmodified, looked up): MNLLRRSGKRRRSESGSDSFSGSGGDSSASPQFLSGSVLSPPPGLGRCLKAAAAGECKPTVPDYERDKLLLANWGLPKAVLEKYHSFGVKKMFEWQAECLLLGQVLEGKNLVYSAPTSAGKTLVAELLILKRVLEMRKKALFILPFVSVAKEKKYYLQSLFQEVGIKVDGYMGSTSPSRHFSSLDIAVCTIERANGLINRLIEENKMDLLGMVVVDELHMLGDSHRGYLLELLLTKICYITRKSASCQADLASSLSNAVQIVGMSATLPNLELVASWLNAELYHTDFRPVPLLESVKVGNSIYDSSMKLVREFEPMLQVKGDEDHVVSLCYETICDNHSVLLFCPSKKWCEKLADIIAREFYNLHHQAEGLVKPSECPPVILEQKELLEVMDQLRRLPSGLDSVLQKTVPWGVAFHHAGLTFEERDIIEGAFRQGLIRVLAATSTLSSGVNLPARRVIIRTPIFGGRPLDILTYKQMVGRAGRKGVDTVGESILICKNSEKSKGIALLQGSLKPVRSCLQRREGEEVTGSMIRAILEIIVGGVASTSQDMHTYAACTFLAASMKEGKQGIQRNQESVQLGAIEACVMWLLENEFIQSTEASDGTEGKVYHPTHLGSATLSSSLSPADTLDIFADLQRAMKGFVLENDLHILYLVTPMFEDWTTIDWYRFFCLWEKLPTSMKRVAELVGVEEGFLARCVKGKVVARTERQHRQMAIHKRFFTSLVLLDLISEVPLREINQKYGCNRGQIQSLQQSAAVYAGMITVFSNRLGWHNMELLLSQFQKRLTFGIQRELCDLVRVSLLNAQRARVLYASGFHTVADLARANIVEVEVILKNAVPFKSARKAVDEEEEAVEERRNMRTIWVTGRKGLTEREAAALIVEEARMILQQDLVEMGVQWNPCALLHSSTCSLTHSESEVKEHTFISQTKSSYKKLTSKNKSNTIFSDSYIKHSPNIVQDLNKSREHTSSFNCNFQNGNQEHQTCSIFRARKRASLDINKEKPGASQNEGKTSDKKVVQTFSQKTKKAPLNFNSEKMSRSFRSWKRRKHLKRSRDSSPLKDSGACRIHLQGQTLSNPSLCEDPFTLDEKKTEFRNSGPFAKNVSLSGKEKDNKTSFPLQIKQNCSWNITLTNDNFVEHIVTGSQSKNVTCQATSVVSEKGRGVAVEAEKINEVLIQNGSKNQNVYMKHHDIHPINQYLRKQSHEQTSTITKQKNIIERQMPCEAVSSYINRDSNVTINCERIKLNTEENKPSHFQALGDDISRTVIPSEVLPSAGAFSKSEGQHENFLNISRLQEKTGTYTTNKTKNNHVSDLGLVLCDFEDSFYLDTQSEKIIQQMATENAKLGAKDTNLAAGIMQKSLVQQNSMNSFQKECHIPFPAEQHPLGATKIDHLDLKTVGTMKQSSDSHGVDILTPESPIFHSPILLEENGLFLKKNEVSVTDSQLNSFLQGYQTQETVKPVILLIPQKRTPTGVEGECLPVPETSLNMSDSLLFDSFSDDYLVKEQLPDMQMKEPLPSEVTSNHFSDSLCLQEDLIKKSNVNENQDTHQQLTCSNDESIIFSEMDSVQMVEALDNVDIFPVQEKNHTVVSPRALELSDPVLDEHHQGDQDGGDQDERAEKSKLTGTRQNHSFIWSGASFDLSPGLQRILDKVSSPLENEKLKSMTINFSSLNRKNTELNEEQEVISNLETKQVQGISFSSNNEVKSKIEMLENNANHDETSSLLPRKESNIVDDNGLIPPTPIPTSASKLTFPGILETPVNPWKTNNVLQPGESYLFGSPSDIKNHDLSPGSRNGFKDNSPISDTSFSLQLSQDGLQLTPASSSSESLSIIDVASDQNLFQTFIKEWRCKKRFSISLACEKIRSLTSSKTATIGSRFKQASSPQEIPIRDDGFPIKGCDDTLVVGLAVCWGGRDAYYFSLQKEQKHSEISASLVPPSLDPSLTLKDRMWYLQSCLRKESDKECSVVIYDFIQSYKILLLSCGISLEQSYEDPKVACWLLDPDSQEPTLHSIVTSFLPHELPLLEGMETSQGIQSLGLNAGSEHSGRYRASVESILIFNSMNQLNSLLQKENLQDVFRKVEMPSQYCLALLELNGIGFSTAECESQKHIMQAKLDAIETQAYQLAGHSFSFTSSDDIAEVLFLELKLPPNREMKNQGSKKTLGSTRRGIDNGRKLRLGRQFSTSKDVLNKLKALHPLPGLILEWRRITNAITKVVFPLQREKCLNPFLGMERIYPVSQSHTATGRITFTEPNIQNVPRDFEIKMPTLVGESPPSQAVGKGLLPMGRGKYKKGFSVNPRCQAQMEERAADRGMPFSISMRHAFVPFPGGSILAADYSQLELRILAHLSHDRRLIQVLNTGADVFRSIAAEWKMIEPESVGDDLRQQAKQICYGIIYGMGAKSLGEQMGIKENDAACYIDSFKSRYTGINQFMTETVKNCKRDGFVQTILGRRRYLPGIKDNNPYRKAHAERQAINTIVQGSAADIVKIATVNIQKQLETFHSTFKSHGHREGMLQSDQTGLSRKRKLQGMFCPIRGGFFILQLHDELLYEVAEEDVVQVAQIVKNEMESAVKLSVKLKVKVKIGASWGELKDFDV
Observed: enzyme activity
Action: inhibitor
Tested at: 77 µM
Relative to: untreated
Measurement: remaining activity
C=C1C[C@]23C[C@@]1(O)CC[C@H]2[C@@]12C=C[C@H](O)[C@@](C)(C(=O)O1)[C@H]2[C@@H]3C(=O)O: 80.2%
C=CCNC(N)=S: 101%
CCCCCCNC(=O)n1cc(F)c(=O)[nH]c1=O: 104%
Cc1ccc(C(=O)c2ccc(CC(=O)O)n2C)cc1: 101%
C[C@@H]1O[C@@H](O[C@H]2[C@H](Oc3cc(O)c(C(=O)CCc4ccc(O)cc4)c(O)c3)O[C@H](CO)[C@@H](O)[C@@H]2O)[C@H](O)[C@H](O)[C@H]1O: 85.1%
COC(=O)/C=C/C(=O)OC: 102%

Series 2
Cell line: A-375
Tested at: 100 µM
Time: 36 h
Measurement: viability
Cc1c(-c2ccccc2)oc2c(C(=O)OCCN3CCCCC3)cccc2c1=O: 1.71%
COc1ccc([C@@H]2Sc3ccccc3N(CCN(C)C)C(=O)[C@@H]2OC(C)=O)cc1: 116%
OCCOCCN1CCN(C(c2ccccc2)c2ccc(Cl)cc2)CC1 (stereo not shown): 61.5%
COCC(=O)Nc1c(I)c(C(=O)NCC(O)CO)c(I)c(C(=O)N(C)CC(O)CO)c1I (mixture of isomers): 90.1%

Series 3
Species: mouse
Matrix: microsomes or S9
Tested at: 2 µM
Time: 0.5 h
Measurement: remaining compound
O=C(c1cccnc1Cl)N1CCN(c2nc3nccc(-c4cccs4)n3n2)CC1: 34.3%
CC(C)(C)C(=O)/C=C1\NCCN\C1=C/C(=O)C(C)(C)C: 9.6%
Clc1ccc(-c2csc3ncnc(N4CCCCC4c4ncc[nH]4)c23)cc1 (stereo not shown): 0.997%
Nc1noc2cc(OCCCCCOc3ccc4c(N)noc4c3)ccc12: 70.4%
Nc1nc(N2CCN(c3ncccn3)CC2)c2nc[nH]c2n1: 68.6%

Series 4
Cell line: mouse MPNST tumor cells
Technique: high-content nuclear imaging
Measured: cell number
Tested at: 10 µM
Time: 12 h
Notes: mean of 2 replicates
Relative to: plate mean
Direction: higher = more cells
Measurement: nuclei count
CCCCOc1cc(CC2CNC(=O)N2)ccc1OC (stereo not shown): 0.799 z-score
CC1(C)S[C@@H]2[C@H](NC(=O)[C@H](N)c3ccc(O)cc3)C(=O)N2[C@H]1C(=O)O: 2 z-score
CC(=O)Nc1ccc(CC(=O)O)cc1: 0.231 z-score
CC(=NNC(=S)N1CCC1)c1ccccn1: -3.3 z-score
CN(C)C[C@H](O)Cn1c2ccc(Br)cc2c2cc(Br)ccc21 (racemic): -6.55 z-score

Series 5
Structure (SMILES): COc1ccc2cc(OCC3(C(=O)O)CN(C(=O)c4ccc(F)cc4)C3)ccc2c1
Tested at: 1 µM
Measurement: remaining binding
GSK3A (Homo sapiens, UniProt P49840); cell-free assay, competition with immobilised ligand: 96%
CDK4 (Homo sapiens, UniProt P11802); cell-free assay, competition with immobilised ligand: 90%
PRKAA2 (Homo sapiens, UniProt P54646); binding, competition with immobilised ligand: 28%
PRKACA (Homo sapiens, UniProt P17612); cell-free assay, competition with immobilised ligand: 100%
PIK3CA (Homo sapiens, UniProt P42336, H1047L); cell-free assay, competition with immobilised ligand: 100%
PTK2 (Homo sapiens, UniProt Q05397); cell-free assay, competition with immobilised ligand: 100%
MAPK4 (Homo sapiens, UniProt P31152); cell-free assay, competition with immobilised ligand: 100%
EPHB6 (Homo sapiens, UniProt O15197); cell-free assay, competition with immobilised ligand: 100%
Tyrosine-protein kinase ABL1, phosphorylated (ABL1, Homo sapiens, UniProt P00519, F317I); binding: 100%
LRRK2 (Homo sapiens, UniProt Q5S007, G2019S); cell-free assay, competition with immobilised ligand: 84%
PNCK (Homo sapiens, UniProt Q6P2M8); cell-free assay, competition with immobilised ligand: 100%
Tyrosine-protein kinase ABL1, non-phosphorylated (ABL1, Homo sapiens, UniProt P00519, T315I); cell-free assay, competition with immobilised ligand: 100%
MAPK3 (Homo sapiens, UniProt P27361); cell-free assay, competition with immobilised ligand: 100%
BMPR1A (Homo sapiens, UniProt P36894); binding, competition with immobilised ligand: 88%
FES (Homo sapiens, UniProt P07332); cell-free assay, competition with immobilised ligand: 100%
EGFR (Homo sapiens, UniProt P00533, G719C); cell-free assay, competition with immobilised ligand: 100%
MAP3K5 (Homo sapiens, UniProt Q99683); cell-free assay, competition with immobilised ligand: 98%

Repeated from above (series 5):
EPHB6 (Homo sapiens, UniProt O15197); cell-free assay, competition with immobilised ligand: 100%
Tyrosine-protein kinase ABL1, phosphorylated (ABL1, Homo sapiens, UniProt P00519, F317I); binding: 100%
LRRK2 (Homo sapiens, UniProt Q5S007, G2019S); cell-free assay, competition with immobilised ligand: 84%
